# Published values from different studies.
# Every numbered part comes from another study and shows a few of its results, in no order. Changes are numbered by the printed parent chain.
# Sequence of UniProt Q99755 (whole entry, looked up): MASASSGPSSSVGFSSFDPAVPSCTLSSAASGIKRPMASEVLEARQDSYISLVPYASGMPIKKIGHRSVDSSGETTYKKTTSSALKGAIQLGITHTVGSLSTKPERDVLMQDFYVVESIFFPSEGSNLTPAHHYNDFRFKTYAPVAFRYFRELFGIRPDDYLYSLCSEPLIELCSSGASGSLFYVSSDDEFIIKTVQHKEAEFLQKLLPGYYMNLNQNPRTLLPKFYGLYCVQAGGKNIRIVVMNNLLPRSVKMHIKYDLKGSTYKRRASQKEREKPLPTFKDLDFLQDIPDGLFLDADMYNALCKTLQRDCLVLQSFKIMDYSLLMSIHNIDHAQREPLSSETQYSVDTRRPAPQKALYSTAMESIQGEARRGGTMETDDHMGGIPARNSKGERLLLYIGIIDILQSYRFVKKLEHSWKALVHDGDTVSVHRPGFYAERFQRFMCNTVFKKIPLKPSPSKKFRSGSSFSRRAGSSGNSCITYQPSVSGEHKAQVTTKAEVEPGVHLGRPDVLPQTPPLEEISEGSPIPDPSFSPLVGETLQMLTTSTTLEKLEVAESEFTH
# Sequence of UniProt P36894 (whole entry, looked up): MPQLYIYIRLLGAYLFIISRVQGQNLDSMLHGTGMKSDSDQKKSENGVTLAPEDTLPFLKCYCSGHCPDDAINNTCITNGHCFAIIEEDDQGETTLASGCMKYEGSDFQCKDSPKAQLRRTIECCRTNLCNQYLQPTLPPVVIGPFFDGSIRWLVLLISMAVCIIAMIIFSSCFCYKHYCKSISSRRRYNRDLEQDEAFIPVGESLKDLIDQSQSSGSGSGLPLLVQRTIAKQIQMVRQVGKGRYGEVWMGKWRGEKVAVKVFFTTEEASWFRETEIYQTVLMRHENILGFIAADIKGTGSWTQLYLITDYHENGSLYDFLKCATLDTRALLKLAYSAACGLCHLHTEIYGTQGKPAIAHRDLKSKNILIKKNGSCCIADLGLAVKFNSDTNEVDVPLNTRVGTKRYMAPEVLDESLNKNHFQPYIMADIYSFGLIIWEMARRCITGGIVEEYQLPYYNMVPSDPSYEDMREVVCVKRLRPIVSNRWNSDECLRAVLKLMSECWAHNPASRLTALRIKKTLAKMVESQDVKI
# Sequence of UniProt P15056 (whole entry, unmodified, looked up): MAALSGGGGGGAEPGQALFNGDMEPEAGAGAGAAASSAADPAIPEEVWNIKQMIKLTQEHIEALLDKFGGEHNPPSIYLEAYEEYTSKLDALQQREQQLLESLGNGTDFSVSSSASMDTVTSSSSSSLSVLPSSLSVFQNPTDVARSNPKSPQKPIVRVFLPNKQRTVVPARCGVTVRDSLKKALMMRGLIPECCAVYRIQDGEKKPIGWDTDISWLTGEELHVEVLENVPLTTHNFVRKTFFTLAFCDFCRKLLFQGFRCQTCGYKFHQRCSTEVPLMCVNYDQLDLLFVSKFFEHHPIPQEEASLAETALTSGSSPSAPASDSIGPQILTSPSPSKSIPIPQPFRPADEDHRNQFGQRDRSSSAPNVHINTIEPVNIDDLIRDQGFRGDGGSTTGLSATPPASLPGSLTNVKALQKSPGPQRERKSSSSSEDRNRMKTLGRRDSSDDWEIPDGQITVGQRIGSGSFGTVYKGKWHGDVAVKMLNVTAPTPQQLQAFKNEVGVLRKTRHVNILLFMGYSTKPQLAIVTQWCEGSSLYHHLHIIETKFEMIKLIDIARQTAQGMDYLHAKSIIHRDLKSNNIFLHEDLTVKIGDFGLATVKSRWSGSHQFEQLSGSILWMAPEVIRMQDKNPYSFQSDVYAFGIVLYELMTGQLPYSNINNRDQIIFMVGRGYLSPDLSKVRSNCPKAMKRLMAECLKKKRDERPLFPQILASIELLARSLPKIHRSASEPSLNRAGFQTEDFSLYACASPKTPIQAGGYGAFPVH
# Sequence of UniProt Q9P286 (whole entry, looked up): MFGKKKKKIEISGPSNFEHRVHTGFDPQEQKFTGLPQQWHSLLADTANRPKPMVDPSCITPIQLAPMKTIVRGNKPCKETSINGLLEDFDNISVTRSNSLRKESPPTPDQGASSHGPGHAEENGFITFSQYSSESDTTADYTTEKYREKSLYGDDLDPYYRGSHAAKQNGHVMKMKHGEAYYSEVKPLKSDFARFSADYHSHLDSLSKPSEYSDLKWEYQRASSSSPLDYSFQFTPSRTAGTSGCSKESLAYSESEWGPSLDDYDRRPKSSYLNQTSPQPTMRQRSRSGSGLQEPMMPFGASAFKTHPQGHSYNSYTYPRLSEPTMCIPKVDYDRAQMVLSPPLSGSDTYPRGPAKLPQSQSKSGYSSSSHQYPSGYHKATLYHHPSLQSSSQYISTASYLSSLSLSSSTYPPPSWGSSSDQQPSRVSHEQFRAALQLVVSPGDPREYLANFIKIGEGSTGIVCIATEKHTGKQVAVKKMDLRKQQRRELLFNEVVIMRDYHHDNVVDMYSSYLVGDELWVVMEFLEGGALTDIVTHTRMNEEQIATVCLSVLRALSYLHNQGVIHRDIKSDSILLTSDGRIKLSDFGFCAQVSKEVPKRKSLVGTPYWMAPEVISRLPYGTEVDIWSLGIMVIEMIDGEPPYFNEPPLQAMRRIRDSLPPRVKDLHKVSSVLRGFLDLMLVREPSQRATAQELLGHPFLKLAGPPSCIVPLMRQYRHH
# Sequence of UniProt Q92918 (whole entry, looked up): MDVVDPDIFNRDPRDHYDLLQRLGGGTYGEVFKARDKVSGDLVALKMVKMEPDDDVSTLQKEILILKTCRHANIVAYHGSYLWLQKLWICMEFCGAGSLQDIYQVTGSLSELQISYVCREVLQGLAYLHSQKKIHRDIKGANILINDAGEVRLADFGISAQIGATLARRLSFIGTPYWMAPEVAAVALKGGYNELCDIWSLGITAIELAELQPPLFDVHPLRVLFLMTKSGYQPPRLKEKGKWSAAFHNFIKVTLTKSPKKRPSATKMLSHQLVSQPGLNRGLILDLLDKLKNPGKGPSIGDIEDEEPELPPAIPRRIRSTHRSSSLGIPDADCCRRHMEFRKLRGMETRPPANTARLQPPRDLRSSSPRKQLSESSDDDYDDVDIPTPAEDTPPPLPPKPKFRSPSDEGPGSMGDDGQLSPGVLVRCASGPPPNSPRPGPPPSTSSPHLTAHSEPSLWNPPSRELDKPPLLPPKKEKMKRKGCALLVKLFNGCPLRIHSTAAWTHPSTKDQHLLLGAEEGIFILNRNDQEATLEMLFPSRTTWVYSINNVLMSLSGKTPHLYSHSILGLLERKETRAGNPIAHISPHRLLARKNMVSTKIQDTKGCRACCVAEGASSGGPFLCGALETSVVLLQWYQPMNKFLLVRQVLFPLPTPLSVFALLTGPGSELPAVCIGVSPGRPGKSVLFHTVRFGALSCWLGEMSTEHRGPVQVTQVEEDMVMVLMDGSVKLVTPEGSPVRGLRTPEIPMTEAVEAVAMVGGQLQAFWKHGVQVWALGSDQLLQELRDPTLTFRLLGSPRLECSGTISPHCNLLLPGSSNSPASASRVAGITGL
# Sequence of UniProt O14757 (whole entry, looked up): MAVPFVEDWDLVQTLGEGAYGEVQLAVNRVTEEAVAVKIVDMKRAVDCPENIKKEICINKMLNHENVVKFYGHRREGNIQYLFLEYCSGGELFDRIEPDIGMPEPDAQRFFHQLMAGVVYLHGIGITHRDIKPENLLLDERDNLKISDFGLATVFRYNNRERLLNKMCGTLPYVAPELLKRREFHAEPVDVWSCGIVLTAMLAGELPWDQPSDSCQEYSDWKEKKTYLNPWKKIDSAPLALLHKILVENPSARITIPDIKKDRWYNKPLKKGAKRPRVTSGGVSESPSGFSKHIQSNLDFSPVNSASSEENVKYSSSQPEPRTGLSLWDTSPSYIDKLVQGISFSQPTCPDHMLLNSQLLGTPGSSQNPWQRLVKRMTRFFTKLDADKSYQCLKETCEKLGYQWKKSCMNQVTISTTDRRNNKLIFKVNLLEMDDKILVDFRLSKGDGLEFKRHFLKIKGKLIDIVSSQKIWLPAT

# Series 1
# Target: Non-receptor tyrosine-protein kinase TYK2 (TYK2, Homo sapiens, UniProt P29597)
# Sequence of UniProt P29597 (whole entry, looked up): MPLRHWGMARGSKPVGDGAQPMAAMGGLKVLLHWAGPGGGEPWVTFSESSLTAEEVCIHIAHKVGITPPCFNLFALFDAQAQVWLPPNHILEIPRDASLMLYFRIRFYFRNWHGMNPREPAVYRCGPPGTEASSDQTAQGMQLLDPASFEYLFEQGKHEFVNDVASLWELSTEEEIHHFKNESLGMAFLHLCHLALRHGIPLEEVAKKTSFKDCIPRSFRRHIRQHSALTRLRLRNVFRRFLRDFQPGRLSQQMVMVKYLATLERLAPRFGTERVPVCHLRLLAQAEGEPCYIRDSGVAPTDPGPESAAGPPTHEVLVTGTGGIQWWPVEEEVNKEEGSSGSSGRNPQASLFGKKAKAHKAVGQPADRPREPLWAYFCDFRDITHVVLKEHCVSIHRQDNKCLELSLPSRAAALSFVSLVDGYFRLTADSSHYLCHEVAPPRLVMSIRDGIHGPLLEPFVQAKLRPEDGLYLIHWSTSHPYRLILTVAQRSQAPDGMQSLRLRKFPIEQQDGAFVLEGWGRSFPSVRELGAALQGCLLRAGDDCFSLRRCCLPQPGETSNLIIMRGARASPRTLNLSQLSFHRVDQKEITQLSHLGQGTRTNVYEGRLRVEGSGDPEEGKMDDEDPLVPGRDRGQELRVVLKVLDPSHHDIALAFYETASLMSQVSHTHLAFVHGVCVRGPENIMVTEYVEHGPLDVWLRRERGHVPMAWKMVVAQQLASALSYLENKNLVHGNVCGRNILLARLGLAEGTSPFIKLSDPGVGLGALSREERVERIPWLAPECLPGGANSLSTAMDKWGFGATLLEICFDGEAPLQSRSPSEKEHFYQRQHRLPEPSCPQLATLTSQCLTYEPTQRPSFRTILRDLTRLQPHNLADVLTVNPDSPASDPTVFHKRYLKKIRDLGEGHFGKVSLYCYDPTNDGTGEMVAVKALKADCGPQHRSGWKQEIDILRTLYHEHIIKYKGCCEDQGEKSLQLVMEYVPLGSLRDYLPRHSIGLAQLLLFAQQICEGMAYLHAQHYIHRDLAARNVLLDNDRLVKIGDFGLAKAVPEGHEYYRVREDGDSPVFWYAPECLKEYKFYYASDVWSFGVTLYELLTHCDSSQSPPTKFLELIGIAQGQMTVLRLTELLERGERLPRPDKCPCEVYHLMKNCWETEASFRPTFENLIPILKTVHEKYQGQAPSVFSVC
# Effect on: enzyme activity
# Action: inhibitor
# Concentration: 0.5 µM
# Relative to: control
Compound,remaining activity [%]
Cc1cccc(-c2[nH]c(C(C)(C)C)nc2-c2ccc3c(c2)OCO3)n1,102
N#CC(C#N)=C(N)/C(C#N)=C/c1ccc(O)cc1,97.4
O=c1c2ccccc2[nH]c(=S)n1CCN1CCC(=C(c2ccc(F)cc2)c2ccc(F)cc2)CC1,107
NCCNc1ncc(C(N)=O)c(Nc2cccc(C(F)(F)F)c2)n1,96.7
O=C(Nc1cccc(Nc2cc(Nc3cccc(C(F)(F)F)c3)ncn2)c1)C1CC1,102
Oc1ccc(-c2nc(-c3ccncc3)c(-c3ccc(F)cc3)[nH]2)cc1,106
Cn1c2ccccc2c2c3c(c4c5ccccc5n(CCC#N)c4c21)CNC3=O,2.62
COc1ccc(CNC(=O)Nc2ncc([N+](=O)[O-])s2)cc1,108
Cn1sc(=O)n(Cc2ccccc2)c1=O,96
COc1cc2ncnc(Nc3ccc(F)c(Cl)c3)c2cc1OCCCN1CCOCC1,102
C#Cc1cccc(Nc2ncnc3cc(OCCOC)c(OCCOC)cc23)c1,99.6
COc1ccc(OC)c2c(=S)c3ccccc3[nH]c12,108
Cc1ccc(Nc2nccc(N(C)c3ccc4c(C)n(C)nc4c3)n2)cc1S(N)(=O)=O,94
Cc1nc(-c2ccccc2)c(-c2ccncc2)o1,109
COc1ccc(C(=O)Nc2sc3c(c2C(N)=O)CCCC3)cc1OC,117

# Series 2
# Change: E131T
# Target: ABI1, truncated, D143A, DHFR fusion (Arabidopsis thaliana)
# Method: DHFR PCA, deep sequencing
# Matrix: yeast
# Setting: methotrexate growth selection, single substitutions
# Relative to: wild-type fitted maximum
# Reading: higher = stronger binding
# Parent: PYL1, truncated, DHFR fusion (Arabidopsis thaliana); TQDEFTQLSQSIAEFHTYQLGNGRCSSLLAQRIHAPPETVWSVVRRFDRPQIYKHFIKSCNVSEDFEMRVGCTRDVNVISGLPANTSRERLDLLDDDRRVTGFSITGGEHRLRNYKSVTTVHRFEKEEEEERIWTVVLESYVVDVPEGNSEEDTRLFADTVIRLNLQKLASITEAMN; partner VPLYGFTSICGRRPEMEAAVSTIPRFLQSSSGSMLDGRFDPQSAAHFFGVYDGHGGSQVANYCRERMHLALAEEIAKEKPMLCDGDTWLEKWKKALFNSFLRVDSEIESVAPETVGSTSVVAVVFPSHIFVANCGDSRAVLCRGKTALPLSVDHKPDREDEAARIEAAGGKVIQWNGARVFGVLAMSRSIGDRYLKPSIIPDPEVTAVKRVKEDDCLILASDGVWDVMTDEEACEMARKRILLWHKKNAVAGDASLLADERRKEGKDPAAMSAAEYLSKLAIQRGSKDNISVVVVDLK
together with,relative binding score [%]
(+)-ABA 710 µM,111
(+)-ABA 4.8 µM,81
(+)-ABA 0.0091 µM,48.7
(+)-ABA 0.39 µM,65.4
(+)-ABA 17 µM,87.9
(+)-ABA 0.11 µM,50

# Series 3
# Molecule: H2BC21 (Homo sapiens, UniProt Q16778)
# Method: cross-linking MS
# Setting: hits only
partner,interaction screen
"H2AC18 (Homo sapiens, UniProt Q6FI13)",cross-linked
"H2AC6 (Homo sapiens, UniProt Q93077)",cross-linked
"H2AC25 (Homo sapiens, UniProt Q7L7L0)",cross-linked

# Series 4
# Structure (SMILES): O=C(NC[C@@H]1[C@H]2CN(C(=O)OCc3cc(C(F)(F)F)cc(C(F)(F)F)c3)C[C@@H]12)c1ccc2[nH]nnc2c1
# Method: competition with immobilised ligand
# Concentration: 1 µM
target,effect on,remaining binding [%]
"PIP5K1A (Homo sapiens, UniProt Q99755)",cell-free assay,93
"MAPK4 (Homo sapiens, UniProt P31152)",cell-free assay,80
"CHEK1 (Homo sapiens, UniProt O14757)",cell-free assay,92
"BMPR1A (Homo sapiens, UniProt P36894)",binding,100
"BRAF (Homo sapiens, UniProt P15056, V600E)",cell-free assay,100
"MAP4K1 (Homo sapiens, UniProt Q92918)",cell-free assay,83
"PAK5 (Homo sapiens, UniProt Q9P286)",cell-free assay,100

# Excerpt of the above (series 4):
target,effect on,remaining binding [%]
"BMPR1A (Homo sapiens, UniProt P36894)",binding,100
"MAP4K1 (Homo sapiens, UniProt Q92918)",cell-free assay,83
"PIP5K1A (Homo sapiens, UniProt Q99755)",cell-free assay,93
"CHEK1 (Homo sapiens, UniProt O14757)",cell-free assay,92
